Assay results from different studies.
A part holds a random share of what one study measured.

Study 1
Target: RNA binding protein fox-1 homolog 2, RRM domain, GST-SBP tag (RBFOX2, Homo sapiens, UniProt O43251-10, residues 100-194)
Technique: RNA Bind-n-Seq
Form: RNA
Medium: in vitro
Concentration: 365 nM
Notes: natural RNA segment, single round, ends assumed
Relative to: no-protein control
Reading: higher = stronger binding
Constant ends, left off below: GGGAGUUCUACAGUCCGACGAUC … UGGAAUUCUCGGGUGCCAA
Construct (chain): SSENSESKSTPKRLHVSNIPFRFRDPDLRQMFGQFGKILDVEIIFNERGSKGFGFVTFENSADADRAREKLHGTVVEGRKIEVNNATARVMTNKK
Sequence	RBNS enrichment (R)
UAAACAUAAAUAAAUUCCUGAGAGUGUCCUAUAUUUGGAUUGUGAUUUGUAGACUCAUGCUAACUUUACUGCCUCUUUUUCACACUUGUUGAAAAAUCUGUGAAGAACAU	0.361
GUUGAGAAAGAAACACUUUAAGGGCGGAAGGCUGGGUGGCUUCCCCGAGAACUAUGAUCUUCCUAUCUGUCGCCUUGCCCACAGCUUCAGGAUGCUCUAAGUUGGAGUCA	1
GUGGCCUUUUGUGAUGGUUUUAUUUUCUGUUAACACUGUGUCCUGGGGGGGCUGGGAAGUCCCCUGCAUCCCAUGGUACCCUGGUAUUGGGACAGCAAAAGCCAGUAACC	0.402
GGUCUGCGGUAGAGAUGGUUUCUGGCAGCCGCAGCAGCCCCAGGUACCUAGCCUCCCCUGGCUGCUCUCCUGUCAGUGAGAUGCAGGAGCCGCCCUCUGCUCUCAGUGGU	0.597
CUUUUGUGACAGGAGCAUACCCAGAAUAAAACACGCCUACCUGUUAACUCGUUCAAAUAAUGUGGUCAUAACUUACACAUUUAAGCGUAUAUUGGAAUUGUUAACUCAAA	0.492
GCCUAGCAGCAUGUGUUAGCCAAAGUCUUCCUCCUUGUUUUGAGAAGACUCCAGGACAGGACAGGCAAAUUCAUGGUAUGUAUGCAGUUGCUGCUCCUGCUUCACCUGUG	1.26
AGAAACACAACUGUUAUCUUGACAGAGGAAGAGAGGAAUCCAAGAAAAAUGCAUGUGGAGAAUUAAACCCAAGUGUUUCGAAUUCAGCACACCCCCUCUCUGUCCUCAGA	7.75
CAAAUAGCAUAUAUCUGAAAUCGUAUGUCUGUGCAGGUUUAACUGCUGCAUACAGCGGGCACAGAUGCAUCUUGUUACAUGUAAGAAAAAGCUGUAUUUGAACAGAGCAU	0.897
CCAACGUGCUGGGAUUACAGGUGUGAGCCACUACGCCCCGGCCCAACUGGAUGGUUUUUGAUUGAAGCCUAGAACAUCUGUAGAGACAAACUCUACCCAGUCUUUUCUAG	0.314
AUUUUUUAAAGGGAACUUUUUACAUGACGUUUGGAAUAACAGCAUAUUGCUGACCAGUCAGUGUCAUCUCCCGGGUGAAUUUUGAUGUCACGUUAUAGUCAAAUGAGUUA	0.692
CACCGGCAACUAACCUAUGACCUUCUGACCUCUGAACUCUUCACCCAAUGAUGACCUGACCAUGCCUGCCUGCUGAUCAGUUAACUGGUAAUCGCCUUUGCUUGCCUGUC	0.371
CUAUUUCAAGUAGGGAAACCCAGGUGGACUUUGCUCAAGAUGGUUCCCAAAAUGAGAGGCACCAACUUCAAGAAUUGCCUCCUAGGGGGAGGCACGAGCCAGAGACCAGG	0.271

Study 2
Target: Interferon regulatory factor 3, full length, phosphomimetic (IRF3, Homo sapiens, UniProt Q14653, residues 1-427, S386D/S396D/S398D/S402D/T404D/S405D)
Chain of UniProt Q14653 (whole entry, unmodified, looked up): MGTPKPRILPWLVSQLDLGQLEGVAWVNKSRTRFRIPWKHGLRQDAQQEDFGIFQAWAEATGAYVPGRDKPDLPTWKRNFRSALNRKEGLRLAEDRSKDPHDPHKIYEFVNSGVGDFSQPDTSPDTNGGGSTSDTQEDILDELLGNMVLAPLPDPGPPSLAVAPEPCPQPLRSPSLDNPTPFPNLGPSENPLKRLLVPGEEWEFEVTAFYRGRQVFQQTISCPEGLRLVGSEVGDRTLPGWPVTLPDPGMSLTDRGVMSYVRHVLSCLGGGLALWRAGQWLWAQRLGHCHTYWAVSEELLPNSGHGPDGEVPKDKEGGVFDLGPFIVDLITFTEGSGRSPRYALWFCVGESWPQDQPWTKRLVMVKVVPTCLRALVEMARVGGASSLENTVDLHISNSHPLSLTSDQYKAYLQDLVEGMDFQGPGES
Technique: protein-binding microarray
Form: double-stranded DNA, one strand shown
Medium: in vitro
Concentration: 2540 nM top
Notes: 60-bp whole probe
Added: salmon DNA 0.4 mg/ml
Relative to: random background probes
Reading: higher = stronger binding
Constant ends, left off below: GCCTAGCAC … GTCTTGATTCGCTTGACGCTGCTG
Sequence	fitted relative affinity [z-score]
TAAGATTTCAGACTGGATTAGTGCTAG	0.576
TCTGTTTTCGCTTTCTTTAAGTGCTAG	4.74
GACGCACTGCTTCTCCTGACGTGCTAG	-0.353
TTCTGAATGCCCTTCCATCACGTGCTA	0.316
TCAGTTTTCAGCTGTTTTACTGTGCTA	1.75
AGCTGTTTGAGAAATCAGATGGTGCTA	-0.0785
GACGAATTCGGGTATCGAGACGTGCTA	0.815
TAGGCTCCAGGTTCTCTGAAGGTGCTA	-0.408
GCAAGAACAGCTGGTGGGCAGTGCTAG	-1.02
GGGTCACTCAATCTCAACAGGTGCTAG	0.113
TCAATTCTTTTTATGCTACTGTGCTAG	1.13
TCAGGACTGGACTTTCGGTTAGTGCTA	1.26
TCACCTTTCAATCCTAGACTGTGCTAG	2.67
TAAGGACTGGGACTGGGTTAGTGCTAG	-1.01
GACGGTTTCGGGTTTCTGGACGTGCTA	5.61
TTGGGTATCGACACTGGGTTAGTGCTA	-0.449
GCCGATTTCAGTTTCGAGACGTGCTAG	4.9
CTTGGGCTCTTCTCTGAAGACGTGCTA	-0.184
TTAGGTTCCAGTTTCGATTAGTGCTAG	6.13
TTAGGTCTCCTACTGCTGTAGTGCTAG	0.784

Study 3
Target: PABPC1L2, full length, GST fusion (mouse, UniProt A0ABA7IW68)
Technique: RNAcompete
Form: RNA
Medium: in vitro
Concentration: 20 nM
Notes: 7-mer, probes averaged, single round
Relative to: mean of 7-mers
Reading: higher = stronger binding
Residues (chain): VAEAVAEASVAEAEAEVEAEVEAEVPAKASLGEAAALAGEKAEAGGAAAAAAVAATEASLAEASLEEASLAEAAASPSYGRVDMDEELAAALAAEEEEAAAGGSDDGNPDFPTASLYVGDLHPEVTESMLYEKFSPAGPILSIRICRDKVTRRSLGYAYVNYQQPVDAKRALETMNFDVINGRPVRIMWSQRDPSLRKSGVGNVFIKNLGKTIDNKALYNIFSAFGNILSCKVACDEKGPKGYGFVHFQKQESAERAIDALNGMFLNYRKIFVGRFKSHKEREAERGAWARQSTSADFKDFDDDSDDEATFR
Sequence	7-mer Z-score
UAGCAGA	-0.0482
AUCAGUC	-0.19
CGCGAAG	-0.161
CCCAAGG	0.017
GGAGAGC	0.157
GCGAUAU	-0.164
UAUCGCG	-0.302
GUUUUGU	-0.463
AACUGAG	0.0569
AAUGUUU	-0.188
AUGUCGC	-0.387
GUUUCUA	-0.329
AUCGACU	-0.219
UGCGGUA	0.0207
UCCAUCA	-0.211
UACGAGG	0.0334
UAACAUC	-0.121
UUGAGUG	-0.246
UCGCUGC	-0.329
GUGCUUG	-0.115
CUAGAAA	1.84
UCCGGAC	-0.307

Study 4
Target: Fragile X messenger ribonucleoprotein 1, C-terminal low-complexity region (Fmr1, Mus musculus, UniProt P35922)
Technique: RNA Bind-n-Seq
Form: RNA
Medium: in vitro
Concentration: 200 nM
Notes: whole 134-nt RNA, ends assumed
Added: 150 mM KCl
Relative to: input library
Reading: higher = stronger binding
Constant ends, left off below: GGGAGUUCUACAGUCCGACGAUC … UGGAAUUCUCGGGUGUCAAGG
Sequence	log2 enrichment
AAGUCCUGUGCUACACAUCGUAUGUACCGAAUCGGUUUUGGGUUUUGGGGUUUUGGAAAGUAUUAUGUUACGCCGUUCGGAUCUGCACUU	-0.366
CCUCAAGUCCUGUGCUACACAUCGUAUGUACCGAAUCGGGGCGGGCGGCGGGAAAGUAUUAUGUUACGCCGUUCGGAUCUGCACUUCCAG	0.52
UGGUUUGAGUCCAGCCAAUGACACUGGAGCCAAAAAGAAGAAAAAGAAACAAAAAAAGAAGAAAGAAAAAGGCAGUGAGACAGAUUCAGC	0.224
UCAAGUCCUGUGCUACACAUCGUAUGUACCGAAUCGGGAAAGGAAAGGAAAGGGAAAGUAUUAUGUUACGCCGUUCGGAUCUGCACUUCC	-0.49
AGUCCUGUGCUACACAUCGUAUGUACCGAAUCGGGAAAAAGGGUGGGUUUUUUUGGGAAAGUAUUAUGUUACGCCGUUCGGAUCUGCACU	0.627
GCAGGAAGUAAAAACAAAUGGAAAUGCUUCGGAGAGUGGCAGGGGUGGGGGUUGCUAAGGAAAGGGUGGGAUGGGAGUGGGUAAAGAGUU	0.101
AGUCCUGUGCUACACAUCGUAUGUACCGAAUCAAAUUUAAACCCCCAAAUUUUUAAAAAAGUAUUAUGUUACGCCGUUCGGAUCUGCACU	0.086
CCUGUGCUACACAUCGUAUGUACCGAAUCGGGGUUUUUUUGGGGAGGGGUUUUUUUGGGGAAAGUAUUAUGUUACGCCGUUCGGAUCUGC	0.404
AAGUCCUGUGCUACACAUCGUAUGUACCGAAUCGGAAAAAGGUUUUUUUGGUUUGGAAAGUAUUAUGUUACGCCGUUCGGAUCUGCACUU	-1.35
GCAGGAAGUAAACACAAAUGGAAAUGCUUCGGAUAGUGGCAGGGGUGGGGGUUGCUAAGGAAAGGGUGGGAUGGGAGUGGGUAAAGAGUU	0.364
UAACUUUAGAGGAGGAUCUGAUGGAUAUGGCAGUUGACGUGGAUUUGGGGAUGGCUAUAAUGGGUAUGGAGGAGGACCUGGAGGUGGCAA	0.137
CUGUGCUACACAUCGUAUGUACCGAAUCGGAAAAAAAGGGGAAAAAAAGGGAAAAAAAGGGAAAGUAUUAUGUUACGCCGUUCGGAUCUG	-1.04
CUCAAGUCCUGUGCUACACAUCGUAUGUACCGAAUCGGGCGGGGCGGGGCGGGAAAGUAUUAUGUUACGCCGUUCGGAUCUGCACUUCCA	1.41
UGGCCCUGGUGGCAUGCGGGGAGGAAGAGGUGGCCUCAUAGAUCGUGGUGGUCCCGGUGGAAUGUUCAGAGGUGGCCGUGGUGGAGACAG	0.0811

Study 5
Target: Histone acetyltransferase KAT6A, winged helix 1, GST fusion (KAT6A, Homo sapiens, UniProt Q92794, residues 1-85)
Technique: protein binding microarray
Form: double-stranded DNA, one strand shown
Medium: in vitro
Concentration: not given
Notes: 8-mer, flanks averaged, mean of 2 arrays, mostly near background
Relative to: not given
Reading: higher = stronger binding
Target sequence (chain): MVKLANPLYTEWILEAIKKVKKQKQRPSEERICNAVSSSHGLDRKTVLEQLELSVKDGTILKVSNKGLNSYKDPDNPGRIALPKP
Sequence	E-score
AATGCTCC	-0.00392
CCCAAATC	-0.119
AATCGCTC	0.0271
CCAGCAAG	-0.196
GATGGCGC	0.261
AAGGTAAA	-0.151
GTCAGCGA	0.148
AAATAGGT	-0.185
AGTGAAAA	-0.0732
CATCCTCC	-0.0906
CATCCCAC	-0.0241
ACTATCTA	-0.0472
AGGTATAT	-0.0798
ACTGTTGG	-0.289
GCTGGACC	-0.127
CCAACACC	-0.222

Excerpt of the above (study 2):
Sequence	fitted relative affinity [z-score]
TTCTGAATGCCCTTCCATCACGTGCTA	0.316
TCAGTTTTCAGCTGTTTTACTGTGCTA	1.75
AGCTGTTTGAGAAATCAGATGGTGCTA	-0.0785
GACGAATTCGGGTATCGAGACGTGCTA	0.815
TAGGCTCCAGGTTCTCTGAAGGTGCTA	-0.408
GCAAGAACAGCTGGTGGGCAGTGCTAG	-1.02
GGGTCACTCAATCTCAACAGGTGCTAG	0.113
TCAATTCTTTTTATGCTACTGTGCTAG	1.13
TCAGGACTGGACTTTCGGTTAGTGCTA	1.26
TCACCTTTCAATCCTAGACTGTGCTAG	2.67
TAAGGACTGGGACTGGGTTAGTGCTAG	-1.01
GACGGTTTCGGGTTTCTGGACGTGCTA	5.61
TTGGGTATCGACACTGGGTTAGTGCTA	-0.449
